Published values of several laboratories.
Numbered parts are unrelated; each lists some results of a single study. Changes are numbered by the printed parent chain.
Sequence of UniProt P06241 (whole entry, looked up): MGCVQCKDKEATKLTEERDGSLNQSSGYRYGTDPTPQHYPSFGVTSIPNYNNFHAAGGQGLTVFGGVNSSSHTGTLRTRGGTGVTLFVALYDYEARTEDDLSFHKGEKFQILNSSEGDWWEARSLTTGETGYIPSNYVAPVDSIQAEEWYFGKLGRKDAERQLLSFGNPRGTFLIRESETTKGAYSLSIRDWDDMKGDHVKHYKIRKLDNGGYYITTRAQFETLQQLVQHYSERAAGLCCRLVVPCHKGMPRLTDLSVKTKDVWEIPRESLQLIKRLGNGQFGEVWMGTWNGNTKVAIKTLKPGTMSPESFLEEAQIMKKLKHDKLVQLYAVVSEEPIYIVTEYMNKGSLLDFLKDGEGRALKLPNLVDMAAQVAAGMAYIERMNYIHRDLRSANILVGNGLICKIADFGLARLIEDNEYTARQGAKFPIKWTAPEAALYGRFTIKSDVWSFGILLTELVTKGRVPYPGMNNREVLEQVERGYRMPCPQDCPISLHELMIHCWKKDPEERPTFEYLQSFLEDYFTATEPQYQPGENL

Block 1
Target: CCNB1, cyclin fold, Cln2 fusion (human)
Method: yeast growth competition, sequencing
Matrix: yeast
Setting: strong parent motif
Reference: not given
Reading: higher = stronger binding
Parent: viral docking peptide; TSVRRALFTGGSD; partner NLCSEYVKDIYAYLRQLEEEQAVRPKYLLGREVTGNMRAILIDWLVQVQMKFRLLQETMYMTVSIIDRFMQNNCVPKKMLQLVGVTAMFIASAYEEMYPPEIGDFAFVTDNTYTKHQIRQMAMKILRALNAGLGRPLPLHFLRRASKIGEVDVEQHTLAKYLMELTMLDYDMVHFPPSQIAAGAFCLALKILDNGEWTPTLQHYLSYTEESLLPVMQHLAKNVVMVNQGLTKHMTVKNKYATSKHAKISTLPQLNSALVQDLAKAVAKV
| Variant | normalised enrichment score |
| --- | --- |
| TSVRRALRTGGSD [F8R] | 0.29 |
| TSVRRALFHGGSD [T9H] | 1.7 |
| TSVRRALFTGGAD [S12A] | 2.08 |
| TSYRRALFTGGSD [V3Y] | 0.426 |
| TSVRRAPFTGGSD [L7P] | 0.125 |
| TSVERALFTGGSD [R4E] | 0.86 |
| TSVRRALITGGSD [F8I] | -0.024 |

Block 2
Target: UDP-N-acetylglucosamine--peptide N-acetylglucosaminyltransferase 110 kDa subunit (OGT, Homo sapiens, UniProt O15294)
Sequence of UniProt O15294 (whole entry, looked up): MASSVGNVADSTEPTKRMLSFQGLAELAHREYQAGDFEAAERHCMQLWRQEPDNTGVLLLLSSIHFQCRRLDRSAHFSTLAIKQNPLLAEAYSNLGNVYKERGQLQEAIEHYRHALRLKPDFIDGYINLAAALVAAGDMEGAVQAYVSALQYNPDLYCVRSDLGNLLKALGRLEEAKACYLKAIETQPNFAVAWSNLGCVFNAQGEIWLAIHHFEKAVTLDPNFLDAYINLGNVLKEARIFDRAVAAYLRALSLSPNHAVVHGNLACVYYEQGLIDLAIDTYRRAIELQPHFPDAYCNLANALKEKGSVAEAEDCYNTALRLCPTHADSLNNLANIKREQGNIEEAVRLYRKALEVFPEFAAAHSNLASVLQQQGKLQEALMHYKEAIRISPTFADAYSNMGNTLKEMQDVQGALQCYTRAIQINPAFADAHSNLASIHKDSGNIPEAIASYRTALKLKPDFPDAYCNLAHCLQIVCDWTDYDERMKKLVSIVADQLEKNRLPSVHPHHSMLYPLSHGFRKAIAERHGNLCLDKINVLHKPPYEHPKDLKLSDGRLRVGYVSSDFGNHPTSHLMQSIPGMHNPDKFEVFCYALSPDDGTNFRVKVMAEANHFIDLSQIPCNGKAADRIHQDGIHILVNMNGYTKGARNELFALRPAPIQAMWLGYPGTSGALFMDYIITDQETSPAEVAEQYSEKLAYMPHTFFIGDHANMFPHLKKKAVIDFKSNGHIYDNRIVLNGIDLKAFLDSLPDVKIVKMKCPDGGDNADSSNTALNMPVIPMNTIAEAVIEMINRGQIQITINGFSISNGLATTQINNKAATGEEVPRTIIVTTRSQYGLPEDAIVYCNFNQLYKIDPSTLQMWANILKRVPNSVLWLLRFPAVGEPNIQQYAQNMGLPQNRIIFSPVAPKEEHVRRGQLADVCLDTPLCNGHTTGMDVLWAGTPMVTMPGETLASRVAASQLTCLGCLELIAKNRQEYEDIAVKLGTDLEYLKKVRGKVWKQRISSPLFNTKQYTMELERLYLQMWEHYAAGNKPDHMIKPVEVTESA
Effect on: binding
Method: phage display NGS
Form: peptide
Tested at: concentration not given
Setting: panning round 2
Reference: input library
| Sequence | enrichment fold change |
| --- | --- |
| VTTHSHNHHTMEYNV | 6.16 |
| SFLKYQPKYPIVYNV | 14.4 |
| WPVQPMYQIFGRYPE | 7.75 |
| FLSSFPPKYPIEYET | 7.6 |

Block 3
Target: tungstate, free oxyanion
Method: microfluidic competitive inhibition
Matrix: in vitro, cell-free expressed
Tested at: not given
Setting: derived from inhibition constants, unchanged parent 2230 nM
Reading: lower = stronger binding
Parent: PafA, mature enzyme, eGFP fusion (Elizabethkingia meningoseptica, UniProt Q9KJX5); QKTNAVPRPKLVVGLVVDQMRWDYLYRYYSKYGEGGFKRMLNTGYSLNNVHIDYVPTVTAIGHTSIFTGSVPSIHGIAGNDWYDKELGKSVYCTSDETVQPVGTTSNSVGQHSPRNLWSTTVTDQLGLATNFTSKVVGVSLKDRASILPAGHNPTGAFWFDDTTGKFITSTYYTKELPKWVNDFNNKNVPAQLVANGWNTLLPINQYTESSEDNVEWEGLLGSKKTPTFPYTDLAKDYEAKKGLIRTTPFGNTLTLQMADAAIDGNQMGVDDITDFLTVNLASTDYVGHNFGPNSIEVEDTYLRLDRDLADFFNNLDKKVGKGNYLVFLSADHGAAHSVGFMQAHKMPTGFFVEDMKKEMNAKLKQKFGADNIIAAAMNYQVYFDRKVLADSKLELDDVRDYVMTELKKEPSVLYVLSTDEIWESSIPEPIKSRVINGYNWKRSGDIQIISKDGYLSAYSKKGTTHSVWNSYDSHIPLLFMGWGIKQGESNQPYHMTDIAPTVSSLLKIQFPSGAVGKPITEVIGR
| Variant | oxyanion analog dissociation constant |
| --- | --- |
| H112V | 1.1 µM |
| F351V | 3.46 µM |
| K319G | 1.96 µM |
| K135G | 2.24 µM |
| M404G | 1.85 µM |
| D391G | 2.33 µM |
| M360G | 2.26 µM |
| N315G | 2.12 µM |

Single results of other studies
| SMILES | target | effect on | mode | tested at | reference | measurement | result |
| --- | --- | --- | --- | --- | --- | --- | --- |
| N/C(=N\[N+](=O)[O-])N/N=C\c1ccc(-c2cccc([N+](=O)[O-])c2)o1 | Tyrosine-protein kinase Fyn (FYN, Homo sapiens, UniProt P06241) | enzyme activity | inhibitor | 0.5 µM | control | remaining activity | 101% |

Excerpt of the above (block 2):
| Sequence | enrichment fold change |
| --- | --- |
| SFLKYQPKYPIVYNV | 14.4 |
| WPVQPMYQIFGRYPE | 7.75 |
| FLSSFPPKYPIEYET | 7.6 |
